Measured values collected from several papers.
Each line is one published result; not all experiments were run side by side.
Target: Serine/threonine-protein kinase PAK 6 (PAK6, Homo sapiens, UniProt Q9NQU5)
Chain of UniProt Q9NQU5 (whole entry, looked up): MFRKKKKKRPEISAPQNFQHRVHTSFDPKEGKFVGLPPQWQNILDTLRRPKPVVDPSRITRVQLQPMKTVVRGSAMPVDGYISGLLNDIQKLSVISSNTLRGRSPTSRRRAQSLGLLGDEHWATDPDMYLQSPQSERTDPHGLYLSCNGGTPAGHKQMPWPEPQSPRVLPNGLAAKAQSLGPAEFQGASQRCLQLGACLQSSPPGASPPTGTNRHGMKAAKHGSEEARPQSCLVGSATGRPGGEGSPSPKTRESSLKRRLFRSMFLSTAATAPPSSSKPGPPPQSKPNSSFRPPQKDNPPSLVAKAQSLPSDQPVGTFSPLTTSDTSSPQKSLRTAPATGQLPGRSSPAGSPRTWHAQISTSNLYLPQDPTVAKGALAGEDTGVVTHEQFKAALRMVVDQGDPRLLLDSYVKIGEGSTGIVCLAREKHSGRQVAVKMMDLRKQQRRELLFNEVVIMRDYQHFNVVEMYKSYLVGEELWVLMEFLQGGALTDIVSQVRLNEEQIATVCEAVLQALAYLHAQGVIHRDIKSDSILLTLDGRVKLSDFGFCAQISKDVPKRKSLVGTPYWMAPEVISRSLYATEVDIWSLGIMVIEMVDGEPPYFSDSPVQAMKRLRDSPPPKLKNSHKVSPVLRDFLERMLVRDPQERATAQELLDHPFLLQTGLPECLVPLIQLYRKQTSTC

SMILES = C=CC(=O)Nc1cccc(-c2cnc3[nH]cc(C(=O)NC(C)(C)C)c3n2)c1; test = enzyme activity, inhibitor; setting = 0.1 µM; quantity = inhibition; result = 3%
SMILES = CC(C)=CC1OC(C)(C)C2C=C3C(=O)C(Cl)=CC(O)C3C3C(O)C4OC4C(=O)C132 (stereo not drawn); test = cell-free assay, competition with immobilised ligand; setting = 10 µM; quantity = remaining binding; result = 92%
SMILES = Nc1ncc(-c2cc(-c3cnn(CC(F)(F)F)c3)ncc2F)nc1C(=O)NC1CNCC(F)C1 (stereo not drawn); test = enzyme activity; setting = 1 µM; how to read = reference: DMSO control; quantity = remaining activity; result = 92.2%
SMILES = C[C@H]1CN(C(=O)c2cn(-c3ccnc(N)n3)c3cc(C#CC4(O)CCCCC4)ccc23)CCN1; test = enzyme activity, inhibitor, FRET; setting = 1 µM; quantity = inhibition; result = 77%
SMILES = Cc1cccc(-c2ccc3nc(NC(=O)C4CCCCC4)nn3c2)c1; test = enzyme activity, Dundee kinase panel; setting = 10 µM; quantity = remaining activity; result = 76%
SMILES = COc1ccc(NC(=O)Nc2ccc3c(c2)C(=O)N(C(C)CO)CC(C)C(CN(C)Cc2ccc4c(c2)OCO4)O3)cc1 (stereo not drawn); test = kinase activity, KinaseProfiler; setting = 0.03 µM, species human; how to read = reference: control; quantity = remaining activity; result = 100%
SMILES = CCN1CCN(Cc2ccc(C(=O)Nc3ccc(C)c(NCc4cnc5[nH]ccc5c4OC)c3)cc2C(F)(F)F)CC1; test = binding, competition with immobilised ligand; setting = 1 µM; quantity = remaining binding; result = 100%
SMILES = Cc1cccc(O[C@H]2CCC[C@@H](C(C)CNCc3ccncc3)C2)c1 (relative stereo); test = enzyme activity, inhibitor; setting = 1 µM; quantity = inhibition; result = -3%
SMILES = CCn1cc(C(=O)O)c(=O)c2c(N)c(F)c(NC3CCCCC3)cc21; test = kinase activity; setting = 0.1 µM, with: ATP at Km; quantity = inhibition; result = -30%
SMILES = Cc1cccc(-c2ccc3nc(NC(=O)C4CCCO4)nn3c2)c1 (stereo not drawn); test = enzyme activity, Dundee kinase panel; setting = 10 µM; quantity = remaining activity; result = 84%
SMILES = CNC1C[S+]2CC[S+]3CC[S+](C1)[Ru-4]321([N]=C=S)[n]2c3ccc(OC)cc3c3c4c(c5cc(F)c[n+]1c5c32)C(=O)NC4=O (stereo not drawn); test = KinomeScan; setting = 0.1 µM; how to read = reference: untreated; quantity = remaining binding; result = 94%
SMILES = Cc1nc2c(F)cc(-c3nc(Nc4ccc(CNC(=O)CCCCCCC(=O)NO)cc4)ncc3F)cc2n1C(C)C; test = enzyme activity, inhibitor; setting = 1 µM; quantity = inhibition; result = 41%
SMILES = C=CC(=O)N1CCCC(n2c(=O)c3ncccc3n(Cc3ccc(Oc4ccccc4)cc3)c2=O)C1 (stereo not drawn); test = cell-free assay, competition with immobilised ligand; setting = 1 µM; quantity = remaining binding; result = 100%
SMILES = NC(=O)[C@@H](O)C[C@H]1CCc2sc3ncnc(O[C@H]4CC[C@H](N5CCOCC5)CC4)c3c21; test = enzyme activity, inhibitor; setting = 10 µM; quantity = inhibition; result = 11%
SMILES = COc1ccc(C(=O)/C=C/c2ccccc2-c2c[nH]c3ccc(C#N)cc23)c(O)c1; test = enzyme activity, inhibitor; setting = 20 µM; quantity = inhibition; result = -7%
SMILES = CNC(=O)C1CCN(c2cc(C)c(F)cc2NC(=O)c2ccc(-c3cc(O)ccc3C)c(C)c2)CC1; test = binding, competition with immobilised ligand; setting = 1 µM; quantity = remaining binding; result = 100%
SMILES = COc1c(OCCCN2CCOCC2)ccc2c1N=C(NC(=O)c1cnc(N)nc1)N1CCN=C21; test = kinase activity, inhibitor; setting = 1 µM; how to read = reference: untreated control; quantity = remaining activity; result = 108%
SMILES = COc1cc(Nc2nccc(-c3cnn4nc(OC)ccc34)n2)cc(C(F)(F)F)c1; test = binding, competition with immobilised ligand; setting = 1 µM; quantity = remaining binding; result = 80%

Some of these lines once more:
SMILES = CC(C)=CC1OC(C)(C)C2C=C3C(=O)C(Cl)=CC(O)C3C3C(O)C4OC4C(=O)C132 (stereo not drawn); test = cell-free assay, competition with immobilised ligand; setting = 10 µM; quantity = remaining binding; result = 92%
SMILES = Cc1cccc(-c2ccc3nc(NC(=O)C4CCCCC4)nn3c2)c1; test = enzyme activity, Dundee kinase panel; setting = 10 µM; quantity = remaining activity; result = 76%
SMILES = Cc1cccc(-c2ccc3nc(NC(=O)C4CCCO4)nn3c2)c1 (stereo not drawn); test = enzyme activity, Dundee kinase panel; setting = 10 µM; quantity = remaining activity; result = 84%
